Assay results pooled from the literature.
Every numbered part comes from another study and shows a few of its results, in no order. Changes are numbered by the printed parent chain.

Block 1
Target: CCNB2, cyclin fold, Cln2 fusion (human)
Technique: yeast growth competition, sequencing
Sample: yeast
Notes: weak parent motif
Relative to: not given
Direction: higher = stronger binding
Parent: WEE1 docking peptide (human); HKTFRKLRLFDTP
`CKTFRKLRLFDTP [H1C]`: “normalised enrichment score” 0.545.
Under “normalised enrichment score”, `LKTFRKLRLFDTP [H1L]` is recorded as 0.506.
For `HKTFRKLRRFDTP [L9R]`, “normalised enrichment score” read 0.375.
`HKTFFKLRLFDTP [R5F]` — result for “normalised enrichment score”: -0.0459.
`HKTFKKLRLFDTP [R5K]` — result for “normalised enrichment score”: 0.14.
`HKTFRKLCLFDTP [R8C]`: “normalised enrichment score” 0.548.
`HKTFRKLRLFDQP [T12Q]`: “normalised enrichment score” 0.543.
For `HKIFRKLRLFDTP [T3I]`, “normalised enrichment score” read 0.248.
For `HKTFRKLRLRDTP [F10R]`, “normalised enrichment score” read 0.923.
Under “normalised enrichment score”, `GKTFRKLRLFDTP [H1G]` is recorded as 0.799.
Under “normalised enrichment score”, `HKTHRKLRLFDTP [F4H]` is recorded as 0.744.
`HKTFRKYRLFDTP [L7Y]` — result for “normalised enrichment score”: 0.782.
Under “normalised enrichment score”, `HKTFRKLPLFDTP [R8P]` is recorded as 0.252.

Block 2
Target: ABI1, truncated, D143A, DHFR fusion (Arabidopsis thaliana)
Technique: DHFR PCA, deep sequencing
Sample: yeast
Notes: methotrexate growth selection, single substitutions
Added: (+)-ABA 200 µM
Relative to: wild-type fitted maximum
Direction: higher = stronger binding
Parent: PYL1, truncated, DHFR fusion (Arabidopsis thaliana); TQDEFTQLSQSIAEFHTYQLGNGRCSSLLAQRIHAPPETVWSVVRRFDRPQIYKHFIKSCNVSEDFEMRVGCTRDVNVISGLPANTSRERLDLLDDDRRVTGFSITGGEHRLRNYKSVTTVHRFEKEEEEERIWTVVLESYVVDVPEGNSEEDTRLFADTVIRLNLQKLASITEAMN
Under “relative binding score”, `D65V` is recorded as 88.6%.
`R90N`: “relative binding score” 68.4%.
For `A175D`, “relative binding score” read 98.7%.
`G108H`: “relative binding score” 29.1%.
Under “relative binding score”, `R163Y` is recorded as 42.3%.
`H55K`: “relative binding score” 105%.
For `L112N`, “relative binding score” read -3.19%.
For `L91Y`, “relative binding score” read 0.894%.
Under “relative binding score”, `S140W` is recorded as 2.05%.
For `V62Y`, “relative binding score” read 81.2%.
`V44F` — result for “relative binding score”: -5.23%.
`G21I` — result for “relative binding score”: 97.1%.
`V142Q` — result for “relative binding score”: 94.4%.
For `A30L`, “relative binding score” read 100%.
`P146F`: “relative binding score” 14.6%.
Under “relative binding score”, `F103Q` is recorded as -0.691%.
Under “relative binding score”, `L8Y` is recorded as 101%.
Under “relative binding score”, `E147C` is recorded as 94.5%.
Under “relative binding score”, `P83M` is recorded as 18.6%.
`A175L` — result for “relative binding score”: 92.4%.
`V70N`: “relative binding score” 75.2%.
Under “relative binding score”, `L28K` is recorded as 80.6%.
For `R155P`, “relative binding score” read 2.07%.

Block 3
Target: Hepatocyte nuclear factor 3-beta, forkhead domain (FOXA2, Homo sapiens, UniProt Q9Y261, residues 142-269)
Technique: protein-binding microarray
Form: double-stranded DNA, one strand shown
Sample: in vitro
Concentration: not given
Notes: k-mer, scored over probes, only values ≥0.25
Direction: higher = stronger binding
Residues (chain): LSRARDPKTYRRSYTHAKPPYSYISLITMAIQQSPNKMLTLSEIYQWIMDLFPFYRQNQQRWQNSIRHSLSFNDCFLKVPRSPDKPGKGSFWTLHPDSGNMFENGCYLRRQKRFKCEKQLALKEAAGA
For `AAATGGTA`, the E-score was 0.366.
`TCGATACA` has an E-score of 0.318.
`TACAAATA` has an E-score of 0.404.
`GTATAAAC` has an E-score of 0.269.
`GTTGACAA` gave an E-score of 0.283.
`AACAAAGT` has an E-score of 0.289.
With `AATGTTTG` the E-score was 0.306.
`TGTGTTAA` has an E-score of 0.307.
With `AACCACAT` the E-score was 0.255.
For `TGATATAA`, the E-score was 0.255.
`ACAAACAA` gave an E-score of 0.393.
`GTAGTTAA` gave an E-score of 0.251.
The E-score of `ACACTAAC` is reported as 0.254.
`ATACAGCA` gave an E-score of 0.252.
`ATCAAATA` has an E-score of 0.383.
With `GATTGTAA` the E-score was 0.261.

Block 4
Target: RNA binding protein fox-1 homolog 2, RRM domain, GST-SBP tag (RBFOX2, Homo sapiens, UniProt O43251-10, residues 100-194)
Technique: RNA Bind-n-Seq
Form: RNA
Sample: in vitro
Concentration: 365 nM
Notes: natural RNA segment, single round, ends assumed
Relative to: no-protein control
Direction: higher = stronger binding
Constant ends, left off below: GGGAGUUCUACAGUCCGACGAUC … UGGAAUUCUCGGGUGCCAA
Target sequence (chain): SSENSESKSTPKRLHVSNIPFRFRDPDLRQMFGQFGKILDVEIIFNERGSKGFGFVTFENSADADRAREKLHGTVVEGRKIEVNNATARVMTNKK
For `UAGGGAUCCAUAGAUAAAUAAGCUACUAACAAACUGAUAACAGUGGUGUUCCAUCUCUCUAUCAUGUCUCCUGAGUCCGUUUCACGUUUUUGAGCCUGGCUAAUGAGAAA`, “RBNS enrichment (R)” read 0.448.
Under “RBNS enrichment (R)”, `AAGAAAGCCUGUCUGGAGAAGUGUGAUGCCCAAGAAGCACGGAAAGCUACGCCGGUGGAAUGUCAGUGUGCUGCUCUGUAGGGAACUGCAGAGCUUAGAGGACUGACUGC` is recorded as 0.827.
`UGGAUGCACGUGAGUGGGUAGCAGGGAGUCAGGAUCCUGCCUUCUCCAGCAACCCCUUACUGCUGUAUAACUUGCAUAAGCCUCCCUGGUGACUCUUGCAGGAACCACUC`: “RBNS enrichment (R)” 0.233.
Under “RBNS enrichment (R)”, `CUAUACAAGUGCACUUUGAUCUGUAAAUAGUUCUAAUCAAAGCAUAACAAAACACUGCUUCAAGAUUUACUUUUAAAUCUAAUUUAAGGGGUGUUUUUACUGUGUUUUUG` is recorded as 0.447.
`AGGUUCUCUUUGCGCUUGCCUUCUCACACCCCCCGACUCCCCACCCAUAUUUUGGUACCAGUUUCUCCUCAUGAAAUGCAGUCCCUGGAUUCUGUGCCAUCUGAACAUGC` — result for “RBNS enrichment (R)”: 0.441.
`GACUCUGCGCGAUAUCAAUACUGGCUAUUUUCUCUUCUCGCCGUAGUGCCGUUGGUUUCACAUGAUUGCACUUUUGUGGGUCACAAGUGAUACAUACGUGUAUUACUCGA` — result for “RBNS enrichment (R)”: 0.249.
For `AACAUAUUUAUAAGGACAUAUUCCUGUGGGUUCUUGGGUGUGUUUGCCACAUCAAGAUUUUAGGGAAGGGGGGUAUAUGUGUAGUAGGGAUGCCGUUUGAAAACAGGCAC`, “RBNS enrichment (R)” read 0.875.
`GGGUUUAGAAAUUCAUUUAUAACUGGUUCUCUGAUGUGGGAAAUCCUGAUUCUGUCCCGGGUUCUUUGCUACUUCCUUGAAAAUACUCUAGCUUCAUGCUGGGUCAAGGU`: “RBNS enrichment (R)” 0.301.

Repeated from above (block 1):
`CKTFRKLRLFDTP [H1C]`: “normalised enrichment score” 0.545.
`HKTFKKLRLFDTP [R5K]` — result for “normalised enrichment score”: 0.14.
`HKTFFKLRLFDTP [R5F]` — result for “normalised enrichment score”: -0.0459.
For `HKTFRKLRLRDTP [F10R]`, “normalised enrichment score” read 0.923.
Under “normalised enrichment score”, `GKTFRKLRLFDTP [H1G]` is recorded as 0.799.
Under “normalised enrichment score”, `HKTHRKLRLFDTP [F4H]` is recorded as 0.744.
